Assay results collected from several papers.
Numbered parts are unrelated; each lists some results of a single study.

Sample 1
Target: TAR DNA-binding protein 43, full length, His tag (TARDBP, Homo sapiens, UniProt Q13148, residues 1-414)
Technique: RNA Bind-n-Seq
Molecule type: RNA
Medium: in vitro
Tested at: 20 nM
Notes: 6-mer, flanks averaged, single round
Added: 150 mM LiCl
Reference: input library
Reading: higher = stronger binding
Oligonucleotide | 6-mer enrichment (R)
GAGUUA | 0.991
CAACGU | 0.85
CCAGUG | 1.02
UGUUUU | 1.58
AAUGGG | 1.17
GCACAC | 0.922
AAUUCC | 0.911
UAUUCC | 0.931
UAUUAU | 1.11
UGGCCU | 1.02
AUUAUG | 1.03
GCAUUA | 0.897
GAGGCG | 1.14
CAUUCU | 0.893
GGCCAC | 0.972
UUUUUA | 1.49
UCGAAU | 0.855

Sample 2
Target: RNA binding protein fox-1 homolog 2, RRM domain, GST-SBP tag (RBFOX2, Homo sapiens, UniProt O43251-10, residues 100-194)
Technique: RNA Bind-n-Seq
Molecule type: RNA
Medium: in vitro
Tested at: 365 nM
Notes: natural RNA segment, single round, ends assumed
Reference: no-protein control
Reading: higher = stronger binding
Constant ends, left off below: GGGAGUUCUACAGUCCGACGAUC … UGGAAUUCUCGGGUGCCAA
Residues (chain): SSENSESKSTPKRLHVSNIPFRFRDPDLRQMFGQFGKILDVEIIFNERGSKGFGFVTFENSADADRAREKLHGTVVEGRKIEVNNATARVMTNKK
Oligonucleotide | RBNS enrichment (R)
CUGCAGUGUCUCAUCUCAUAGACUGUGAACCUGUAUAUUAUUCAAAUGGCUACAGAUAAUGCUCUUUUCUUUUGUGAGGUCUCUUCAUUUAAUGCACUGCCCAGAAAGAG | 0.658
AGUGACCGGCUGCUUUUCCCUAAGCCAAGGGCCUCUUGCGGUCCCUUCUUACUCACACACAAAAUGUACCCAGUAUUCUAGGUAGUGCCCUAUUUUACAAUUGUAAAACU | 0.409
CCAUCUGCAAUUUGCCUGUGGGAGAAGCAUCCUUUAGUUCAUCUUAAGGAAGUGCUUUAUCAGCUAAACCCAACAUUGAUAACUUUGGUAAUUUUUUUAAAAAGUUAUAC | 0.288
GAAAUGUUUAAUUUCAGUUACUGUGAAUUCUUCUAAUCAGUUCGUUCUUUGAUUUUAAAAAGAAAAACCUUUUCCAUCAUAUUAAAGAGAAAAUUAGCUAUGGGAAGAUA | 0.863
GCCAUAUUCAUGCAGGUGCUAACCGCCUUUUCUACUGGUGCAACUGAAAGGAAUAUGGUAACAUGGUUGGAUUUUUAAAAUUCACAAUGAAGGAACGAGACAAGCAAAAC | 0.383
UUAUUGUACUUCCAUUCAUACUCUGGGCACUUGUGUUGUAUUGUUCUGUUACAUACUUUUUUUAACCUGUUUUGUUUUAUCAUAUAUGCAUUAAAAGUAUUAUCUUUAUC | 1.03
AAAUGCUAUUUUUACUAAACAUGUCGUACCUAUGCAGUAUAUACAUUAAAGGAAAGCUUGCACUGUAUCUACUUGGUAUUUCUUUUCUUACCAAGCUGGAUAGUAAAGUC | 0.294
UGAGGACGAGGAAGUUUCUGCCACUGCUUGCAGCUUUUCUGUGUGCUUUGGACUUGCUUUAGGAGGGAAAUAUAGCUUUGUAGAGAUAAAGGCUGACAUCUGGGGUCUAG | 1.07

Sample 3
Target: Histone acetyltransferase KAT6A, winged helix 2, GST fusion (KAT6A, Homo sapiens, UniProt Q92794, residues 85-181)
Technique: protein binding microarray
Molecule type: double-stranded DNA, one strand shown
Medium: in vitro
Tested at: not given
Notes: 8-mer, flanks averaged, mean of 2 arrays, mostly near background
Reference: not given
Reading: higher = stronger binding
Construct (chain): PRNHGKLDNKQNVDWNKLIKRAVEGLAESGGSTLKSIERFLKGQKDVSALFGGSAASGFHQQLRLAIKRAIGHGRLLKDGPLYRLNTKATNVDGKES
Oligonucleotide | E-score
GTAAGCAC | -0.0219
AGATTAAA | 0.272
ACGAACGG | 0.0898
AACGTCTG | 0.0203
CCGACCAC | 0.0614
AGGTGGCC | -0.028
GTGCATGA | -0.0376
AATAGGCA | 0.0672
CGGTGGAC | 0.0918
ACGTATGA | 0.101
TGCTGACA | 0.137
GGATATCA | 0.112
ATGATATG | 0.145
CTTTAGAA | 0.0482
TATGTTAA | 0.0584
ATGTAGAG | -0.0361
CACACACG | 0.00257
CTCTTATA | 0.0255
CAGCGATG | -0.014
CCCATGGA | -0.197
AGGATAGC | 0.00364
GGATTCGA | 0.025
AACTCGCG | 0.111
ACTACTAC | -0.166
CTCATCAC | -0.191

Sample 4
Target: Interferon regulatory factor 7, full length, phosphomimetic (IRF7, Homo sapiens, UniProt Q92985, residues 1-503, S471D/S472D/S475D/S476D/S477D/S483D/S484D/S487D)
Technique: protein-binding microarray
Molecule type: double-stranded DNA, one strand shown
Medium: in vitro
Tested at: 2200 nM top
Notes: 60-bp whole probe
Added: salmon DNA 0.4 mg/ml
Reference: random background probes
Reading: higher = stronger binding
Constant ends, left off below: GCCTAGCAC … GTCTTGATTCGCTTGACGCTGCTG
Target sequence (chain): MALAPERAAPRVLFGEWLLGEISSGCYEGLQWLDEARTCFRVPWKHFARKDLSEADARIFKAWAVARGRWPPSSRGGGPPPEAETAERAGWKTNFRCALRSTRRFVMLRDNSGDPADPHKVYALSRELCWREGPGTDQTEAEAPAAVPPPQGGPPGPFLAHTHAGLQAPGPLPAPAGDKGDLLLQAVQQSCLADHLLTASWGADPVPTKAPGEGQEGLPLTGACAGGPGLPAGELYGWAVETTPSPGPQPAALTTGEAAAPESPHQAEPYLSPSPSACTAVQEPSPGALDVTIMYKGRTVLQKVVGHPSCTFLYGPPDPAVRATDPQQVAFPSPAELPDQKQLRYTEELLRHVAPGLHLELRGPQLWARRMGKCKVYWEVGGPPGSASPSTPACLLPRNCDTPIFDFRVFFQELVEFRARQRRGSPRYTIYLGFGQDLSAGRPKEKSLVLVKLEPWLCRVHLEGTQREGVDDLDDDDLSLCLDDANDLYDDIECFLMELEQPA
Oligonucleotide | fitted relative affinity
GACGGTATCCTAATCCTGACGTGCTAG | 0.631 z-score
GACGGACTGGGTCTCGGGCCGTGCTAG | -1.01 z-score
TTAGGATTCCTTTCCCTTTAGTGCTAG | 2.92 z-score
GACGAGATCAGACTGGAGACGTGCTAG | -0.324 z-score
TTAGATAACAGTCTCGATTAGTGCTAG | -0.0746 z-score
TTAGATCGCAGACTGGATTAGTGCTAG | -0.403 z-score
GACGAACTGAGTTTTGAGACGTGCTAG | 0.25 z-score
TTAGGTATCGGGTTTCAGTTAGTGCTA | 1.32 z-score
GACGGTATCGACTTTCGAGACGTGCTA | 2.51 z-score
GACGGACTGGGTATCGGGGCGTGCTAG | -0.816 z-score
GACGATCTCCTTATCCTGACGTGCTAG | 1.36 z-score
GACGATTTCGGGTTTCGTGACGTGCTA | 4.97 z-score
GACGATCTCGGTTTCGAGACGTGCTAG | 3.06 z-score
TCAACCATCCTGTGTCTTACTGTGCTA | 1.08 z-score
TCACCTTTCCAAATACCACTGTGCTAG | 2.87 z-score
GACGGTCTCGGTCTCTGGACGTGCTAG | 0.257 z-score

Repeated from above (sample 1):
Oligonucleotide | 6-mer enrichment (R)
GAGUUA | 0.991
CAACGU | 0.85
CCAGUG | 1.02
UGUUUU | 1.58
AAUGGG | 1.17
GCACAC | 0.922
AAUUCC | 0.911
UAUUCC | 0.931
UAUUAU | 1.11
UGGCCU | 1.02
AUUAUG | 1.03
